# Assay results collected from several papers.
# Parts stem from different laboratories: compare values within a part only. Substitutions count along the parent as printed.

# Series 1
# Target: Interferon regulatory factor 7, full length, phosphomimetic (IRF7, Homo sapiens, UniProt Q92985, residues 1-503, S101K/S471D/S472D/S475D/S476D/S477D/S483D/S484D/S487D)
# Method: protein-binding microarray
# Molecule type: double-stranded DNA, one strand shown
# Matrix: in vitro
# Concentration: 250 nM
# Setting: 60-bp whole probe
# Added: salmon DNA 0.4 mg/ml
# Reference: random background probes
# Direction: higher = stronger binding
# All sequences stand within: GCCTAGCAC … GTCTTGATTCGCTTGACGCTGCTG
# Target sequence (chain): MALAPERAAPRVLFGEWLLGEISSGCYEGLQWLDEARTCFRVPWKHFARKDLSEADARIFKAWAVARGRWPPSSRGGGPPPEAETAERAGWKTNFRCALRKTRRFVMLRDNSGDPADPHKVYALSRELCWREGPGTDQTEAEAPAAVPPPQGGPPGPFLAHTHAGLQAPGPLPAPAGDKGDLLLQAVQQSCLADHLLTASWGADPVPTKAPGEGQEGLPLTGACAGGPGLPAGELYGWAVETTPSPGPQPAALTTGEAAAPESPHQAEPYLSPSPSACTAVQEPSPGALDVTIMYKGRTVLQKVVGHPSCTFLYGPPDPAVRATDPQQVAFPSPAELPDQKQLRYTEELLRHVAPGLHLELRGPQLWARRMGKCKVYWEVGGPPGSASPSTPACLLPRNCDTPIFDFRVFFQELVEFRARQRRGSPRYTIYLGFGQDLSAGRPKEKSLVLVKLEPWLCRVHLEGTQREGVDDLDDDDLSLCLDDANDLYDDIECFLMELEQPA
Strand,log fluorescence [z-score]
TCTGCTTTGCCTTCAGCCCGGTGCTAG,-0.351
GTCGATCTCAGACTGGAGACGTGCTAG,0.0699
TTAGGAATCGGTTTCGGTTAGTGCTAG,10.7
TACGATTTCGGGTTTCGAGACGTGCTA,4.48
GACGATCTCAGAATGGAGACGTGCTAG,-0.168
GACGATTTCAGACTGAAGACGTGCTAG,-0.143
GACTGTCTCCTTCTCCTGACGTGCTAG,0.133
CACTAGTTTCTTTTCTTTTCGTGCTAG,6.52
CACGATCTCAGTCTCGAGACGTGCTAG,0.678
TCACTCATACATCTGGGACTGTGCTAG,-0.0362
GACGGTTTTCTTTCCCTGACGTGCTAG,2.07
GACGGAGTGGACACTGGGGACGTGCTA,-0.718
TTAGGACTGGGGTATCGTTTAGTGCTA,0.406
GACGGTTTCGACTTTCCGGACGTGCTA,10.9
TTAGGACTGGGCTTCGGTTAGTGCTAG,-0.0375
TCATTTTTCTGAACCATACTGTGCTAG,1.21
GACGATCTCAGTCTCAAGACGTGCTAG,-0.0293
TCACCTTTGAAAGTTGTTACTGTGCTA,0.371
GACGGGTTCGGGTTTCGGGACGTGCTA,4.08
TTAGGTTTCGGGTGTCGGTTAGTGCTA,5.04
TTAGGTATCGGTCTCGGTGAGTGCTAG,0.875
TCACAGTTGAGTTCTGTTACTGTGCTA,-0.274
TCAAGTCTTGTTTTACAACTGTGCTAG,2.46
TTAGATTTCAGTTCCGTTTAGTGCTAG,3.27
CAGAATCTCTCATGTTACATTGTGCTA,0.178

# Series 2
# Target: Sal-like protein 4, full length isoform B (SALL4, Homo sapiens, UniProt Q9UJQ4-2, residues 1-616)
# Method: universal PBM
# Molecule type: double-stranded DNA, one strand shown
# Matrix: in vitro
# Concentration: not given
# Setting: 8-mer, flanks averaged, mean of replicates
# Direction: higher = stronger binding
Strand,E-score
ATAGGTGC,0.054
ATGGCCGG,-0.184
GATGCCTA,0.0778
AAGGCTCC,-0.301
AGTCGAAC,-0.134
ATCATTTA,0.339
CTCGAAAG,-0.0908
ATCGCCCA,-0.21
GCCTCGAA,-0.181
GCACCTGA,0.02
CCGATTAG,-0.119
GTACACAA,0.114
CATCCGGA,-0.14
AAAACCCG,-0.0714
ACAGACAG,-0.0314
CTGAGAGA,-0.133
CGAAAAAG,0.0576
AACCCTCT,-0.0421
GTCGAGTA,-0.0708
CACGTTTC,-0.0988
TAGAAAAA,0.178
CTAGTCAC,0.067
CCCAAGCG,-0.185
TCACAACA,0.18
CGCGATTA,0.0547

# Series 3
# Target: ABI1, truncated, D143A, DHFR fusion (Arabidopsis thaliana)
# Method: DHFR PCA, deep sequencing
# Matrix: yeast
# Setting: methotrexate growth selection, single substitutions
# Added: (+)-ABA 58 µM
# Reference: wild-type fitted maximum
# Direction: higher = stronger binding
# Parent: PYL1, truncated, DHFR fusion (Arabidopsis thaliana); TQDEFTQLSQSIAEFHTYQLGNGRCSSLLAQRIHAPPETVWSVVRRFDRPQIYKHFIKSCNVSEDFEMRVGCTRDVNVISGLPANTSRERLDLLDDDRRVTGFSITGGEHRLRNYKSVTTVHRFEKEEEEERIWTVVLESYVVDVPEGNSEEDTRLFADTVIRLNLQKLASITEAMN; partner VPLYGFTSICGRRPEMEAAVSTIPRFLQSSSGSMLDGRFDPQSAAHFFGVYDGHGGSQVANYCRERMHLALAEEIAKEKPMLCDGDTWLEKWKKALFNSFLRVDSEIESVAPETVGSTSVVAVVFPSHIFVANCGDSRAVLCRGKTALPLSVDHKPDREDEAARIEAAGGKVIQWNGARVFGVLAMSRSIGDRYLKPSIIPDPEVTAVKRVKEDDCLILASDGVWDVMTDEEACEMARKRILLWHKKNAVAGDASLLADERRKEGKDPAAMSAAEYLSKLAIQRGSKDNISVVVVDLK
Variant,relative binding score [%]
V137A,31.8
L156M,85.9
N77A,91.8
I52M,85.6
T106Q,83.6
V118K,82.5
H16D,-17.6
S87R,10.4
L91P,-4.71
T73A,66.5
I172L,79
E89K,9.76
P83E,39.4
T6S,94.6
Q31H,77.8
Y115F,88.3
P83T,9.25
V143G,-0.668
T160E,17.6
E129N,98.7
N22R,90.5
K126D,97.4
L82I,86
L164H,83.8
I52W,66.7

# Series 4
# Target: Prothrombin, mature alpha-thrombin (F2, Homo sapiens, UniProt P00734)
# Method: aptamer microarray, sandwich
# Molecule type: DNA with 2'F-ANA
# Matrix: in vitro
# Concentration: 200 nM
# Setting: whole 15-mer aptamer, many near background
# Added: Cy3 exosite-II aptamer, 400 nM
# Direction: higher = stronger binding
# Strand: GGTTGGTGTGGTTGG
Modification,mean fluorescence intensity [a.u.]
2'F-ANA at 2 5 6 9 10 14 15,52.4
2'F-ANA at 2 3 5 6 8 10 12 14 15,49.4
2'F-ANA at 2 3 4 6 10 11 12 13,341
2'F-ANA at 1 3 5 6 7 8 11,62.2
2'F-ANA at 3 4 6 9 10 15,253
2'F-ANA at 1 4 5 8 9 14,142
2'F-ANA at 1 4 6 7 8 9 10 11 13 14 15,48.4
2'F-ANA at 1 4 5 6 7 8 11 12 13 14 15,47.2
2'F-ANA at 6 7 8 9 10 15,164
2'F-ANA at 1 2 4 5 10 14 15,43.7
2'F-ANA at 1 2 9 10 12 13,67.6
2'F-ANA at 2 5 6 7 9 11 12 13,84.8
2'F-ANA at 1 3 4 5 8 9 11 13 15,48.8
2'F-ANA at 1 5 6 7 10 12 13 14 15,48.9
2'F-ANA at 1 4 8 11 13,102
2'F-ANA at 3 4 5 7 8 10 13 14 15,85.2
2'F-ANA at 1 2 4 5 8 9 10 11 12,53.6
2'F-ANA at 4 5 6 9 10 11 12 13 14,79.4
2'F-ANA at 3 6 7 9 10 13 14 15,316
2'F-ANA at 2 3 4 5 7 10 14 15,48.3
2'F-ANA at 1 2 5 6 9 11 14,43.5
2'F-ANA at 1 6 7 11 12 14 15,67.7
2'F-ANA at 2 6 8 10 11 15,115
2'F-ANA at 3 7 9 11 12 14,700
2'F-ANA at 1 2 3 4 5 6 7 8 10 11 13,82.2

# Series 5
# Target: CCNB2, cyclin fold, Cln2 fusion (human)
# Method: yeast growth competition, sequencing
# Matrix: yeast
# Setting: strong parent motif
# Reference: not given
# Direction: higher = stronger binding
# Parent: CUX1 docking peptide (human); SRIRRELFIEEIQ; partner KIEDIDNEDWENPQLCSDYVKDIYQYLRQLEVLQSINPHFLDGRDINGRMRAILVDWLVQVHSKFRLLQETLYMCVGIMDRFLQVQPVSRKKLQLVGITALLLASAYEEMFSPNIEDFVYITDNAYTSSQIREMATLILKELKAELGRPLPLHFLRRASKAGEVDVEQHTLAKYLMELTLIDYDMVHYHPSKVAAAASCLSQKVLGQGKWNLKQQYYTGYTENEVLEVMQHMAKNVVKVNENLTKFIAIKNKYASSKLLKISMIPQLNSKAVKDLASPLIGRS
Variant,normalised enrichment score
SRIRAEAFIEEIQ [R5A L7A],-0.137
SRIARELFIEEIQ [R4A],0.266
SRIRKELFIEEIQ [R5K],1.34
ARIRRELFIEEIQ [S1A],0.937
SRIRRELAIEEIQ [F8A],0.445
SRIRRELLIEEIQ [F8L],1
SRIRRELFIEEIA [Q13A],0.356
SAIRRELFIEEIQ [R2A],0.372
SRARRELFIEEIQ [I3A],-0.0865
SRIRRALFIEEIQ [E6A],0.756

# Series 6
# Target: TEF, bZIP domain (human)
# Method: DHFR protein complementation
# Matrix: yeast
# Setting: single substitutions, most at no-binding floor
# Reference: wild-type JUN-FOS pair
# Direction: higher = stronger binding
# Parent: JUN, bZIP domain (human); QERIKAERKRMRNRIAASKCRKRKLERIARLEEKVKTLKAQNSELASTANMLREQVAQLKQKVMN; partner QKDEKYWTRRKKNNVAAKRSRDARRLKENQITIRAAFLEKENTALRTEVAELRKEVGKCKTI
Variant,binding fitness [natural log]
R53Q,-1.39
A57P,-1.55
N42T,-1.53
L31V,-1.28
E32Q,-1.36
T37N,-1.17
K39A,-1.41
R30E,-1.38
V56Y,-1.44
L31M,-1.51
E33G,-1.37
V35P,-1.52
A29M,-1.48
R53S,-1.38
E33A,-1.31
M51K,-1.48
V56F,-1.5
Q41R,-1.5
K36G,-1.49
L31G,-1.42
E54W,-1.36
N42I,-1.49
M51C,-1.3
Q55M,-1.65

# Excerpt of the above (series 1):
Strand,log fluorescence [z-score]
TCACTCATACATCTGGGACTGTGCTAG,-0.0362
TTAGGACTGGGCTTCGGTTAGTGCTAG,-0.0375
TCATTTTTCTGAACCATACTGTGCTAG,1.21
GACGGGTTCGGGTTTCGGGACGTGCTA,4.08
GACGATCTCAGAATGGAGACGTGCTAG,-0.168
GACGGTTTCGACTTTCCGGACGTGCTA,10.9
TTAGGTTTCGGGTGTCGGTTAGTGCTA,5.04
GACGGAGTGGACACTGGGGACGTGCTA,-0.718
GACGGTTTTCTTTCCCTGACGTGCTAG,2.07
GACGATTTCAGACTGAAGACGTGCTAG,-0.143
CAGAATCTCTCATGTTACATTGTGCTA,0.178
TCACAGTTGAGTTCTGTTACTGTGCTA,-0.274
TCACCTTTGAAAGTTGTTACTGTGCTA,0.371
GACGATCTCAGTCTCAAGACGTGCTAG,-0.0293
GACTGTCTCCTTCTCCTGACGTGCTAG,0.133
TACGATTTCGGGTTTCGAGACGTGCTA,4.48
TTAGGTATCGGTCTCGGTGAGTGCTAG,0.875
CACTAGTTTCTTTTCTTTTCGTGCTAG,6.52
